Measurements pooled from the literature.
Numbers after ± are the reported error.
NNMT SAM-bound: Nicotinamide N-methyltransferase, SAM-bound (NNMT, Homo sapiens, UniProt P40261)
UniProt P40261, sequence (whole entry, looked up): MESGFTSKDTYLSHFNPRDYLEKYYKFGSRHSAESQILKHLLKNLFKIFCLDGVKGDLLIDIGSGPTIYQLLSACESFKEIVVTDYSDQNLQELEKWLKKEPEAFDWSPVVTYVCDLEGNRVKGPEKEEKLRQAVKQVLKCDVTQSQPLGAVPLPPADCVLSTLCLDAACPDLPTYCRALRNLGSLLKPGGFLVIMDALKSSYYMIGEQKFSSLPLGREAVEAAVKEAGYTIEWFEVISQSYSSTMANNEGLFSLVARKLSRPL
UniProt P46937, sequence (whole entry, looked up): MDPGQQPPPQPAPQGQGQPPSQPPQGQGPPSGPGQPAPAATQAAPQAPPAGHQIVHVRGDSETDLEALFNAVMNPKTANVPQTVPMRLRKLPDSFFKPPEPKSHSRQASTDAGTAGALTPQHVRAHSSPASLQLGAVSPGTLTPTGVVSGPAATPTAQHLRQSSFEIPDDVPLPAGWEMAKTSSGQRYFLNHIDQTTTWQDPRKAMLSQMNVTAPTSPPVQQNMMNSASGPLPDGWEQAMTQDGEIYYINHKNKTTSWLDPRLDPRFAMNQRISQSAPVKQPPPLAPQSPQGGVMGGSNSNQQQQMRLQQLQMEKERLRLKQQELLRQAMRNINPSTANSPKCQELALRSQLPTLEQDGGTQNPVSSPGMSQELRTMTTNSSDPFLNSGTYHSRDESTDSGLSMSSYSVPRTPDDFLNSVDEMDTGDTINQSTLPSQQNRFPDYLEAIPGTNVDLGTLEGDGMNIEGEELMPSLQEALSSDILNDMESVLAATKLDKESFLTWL
UniProt Q9UKP6, sequence (whole entry, looked up): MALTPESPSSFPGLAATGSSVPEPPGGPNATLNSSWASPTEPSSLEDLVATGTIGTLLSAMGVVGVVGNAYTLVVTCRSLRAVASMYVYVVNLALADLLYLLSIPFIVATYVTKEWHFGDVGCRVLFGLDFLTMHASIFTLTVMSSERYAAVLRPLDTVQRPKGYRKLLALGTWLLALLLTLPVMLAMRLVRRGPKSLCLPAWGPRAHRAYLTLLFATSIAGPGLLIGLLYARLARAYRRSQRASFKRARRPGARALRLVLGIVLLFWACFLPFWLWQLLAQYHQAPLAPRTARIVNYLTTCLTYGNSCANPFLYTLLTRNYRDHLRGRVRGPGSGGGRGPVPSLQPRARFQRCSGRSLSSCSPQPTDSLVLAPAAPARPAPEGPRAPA
UniProt P23280, sequence (whole entry, looked up): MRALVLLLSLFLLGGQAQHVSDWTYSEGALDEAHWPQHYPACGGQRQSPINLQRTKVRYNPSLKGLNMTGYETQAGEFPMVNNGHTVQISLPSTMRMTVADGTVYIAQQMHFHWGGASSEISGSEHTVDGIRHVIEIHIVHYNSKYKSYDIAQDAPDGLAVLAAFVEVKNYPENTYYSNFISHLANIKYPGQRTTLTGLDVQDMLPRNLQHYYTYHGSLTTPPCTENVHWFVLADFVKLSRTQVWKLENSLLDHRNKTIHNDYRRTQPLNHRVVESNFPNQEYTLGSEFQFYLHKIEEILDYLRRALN
UniProt O95696, sequence (whole entry, looked up): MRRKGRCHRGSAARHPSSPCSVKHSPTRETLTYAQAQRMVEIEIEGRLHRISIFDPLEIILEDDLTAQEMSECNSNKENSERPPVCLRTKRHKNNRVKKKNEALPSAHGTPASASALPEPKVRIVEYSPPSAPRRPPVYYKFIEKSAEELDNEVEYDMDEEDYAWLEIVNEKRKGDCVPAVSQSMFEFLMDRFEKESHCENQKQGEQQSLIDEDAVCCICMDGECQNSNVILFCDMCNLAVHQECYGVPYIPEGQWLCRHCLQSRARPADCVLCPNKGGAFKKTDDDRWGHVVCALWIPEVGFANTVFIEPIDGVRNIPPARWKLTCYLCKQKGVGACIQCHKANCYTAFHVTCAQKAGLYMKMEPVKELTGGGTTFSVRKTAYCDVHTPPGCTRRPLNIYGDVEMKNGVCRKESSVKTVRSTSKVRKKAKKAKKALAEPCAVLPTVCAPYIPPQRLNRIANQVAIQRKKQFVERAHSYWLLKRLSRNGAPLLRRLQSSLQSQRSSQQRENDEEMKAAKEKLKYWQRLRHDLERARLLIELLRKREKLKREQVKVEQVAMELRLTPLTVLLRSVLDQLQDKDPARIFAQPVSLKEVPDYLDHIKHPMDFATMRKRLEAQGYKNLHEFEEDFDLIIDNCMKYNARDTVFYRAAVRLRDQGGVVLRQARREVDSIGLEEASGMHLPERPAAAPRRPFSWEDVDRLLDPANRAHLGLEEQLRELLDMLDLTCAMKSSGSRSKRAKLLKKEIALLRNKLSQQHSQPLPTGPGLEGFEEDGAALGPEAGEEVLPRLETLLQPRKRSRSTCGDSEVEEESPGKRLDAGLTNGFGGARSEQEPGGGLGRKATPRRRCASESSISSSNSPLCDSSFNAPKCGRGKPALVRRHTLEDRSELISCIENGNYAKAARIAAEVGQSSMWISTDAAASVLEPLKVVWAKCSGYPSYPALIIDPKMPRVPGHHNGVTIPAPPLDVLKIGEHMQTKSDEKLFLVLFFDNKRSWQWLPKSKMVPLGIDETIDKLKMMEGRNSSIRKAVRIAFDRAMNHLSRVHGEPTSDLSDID
UniProt P63096, sequence (whole entry, looked up): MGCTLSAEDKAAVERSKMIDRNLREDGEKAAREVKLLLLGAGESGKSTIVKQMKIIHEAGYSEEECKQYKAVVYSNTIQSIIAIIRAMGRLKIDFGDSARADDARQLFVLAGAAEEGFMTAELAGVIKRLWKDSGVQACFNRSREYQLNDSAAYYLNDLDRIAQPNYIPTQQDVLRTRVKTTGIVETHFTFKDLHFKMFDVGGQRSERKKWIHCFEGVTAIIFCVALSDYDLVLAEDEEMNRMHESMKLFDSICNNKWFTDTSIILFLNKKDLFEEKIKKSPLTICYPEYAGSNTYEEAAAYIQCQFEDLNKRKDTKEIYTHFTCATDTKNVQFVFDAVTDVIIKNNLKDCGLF
UniProt Q9BZL6, sequence (whole entry, looked up): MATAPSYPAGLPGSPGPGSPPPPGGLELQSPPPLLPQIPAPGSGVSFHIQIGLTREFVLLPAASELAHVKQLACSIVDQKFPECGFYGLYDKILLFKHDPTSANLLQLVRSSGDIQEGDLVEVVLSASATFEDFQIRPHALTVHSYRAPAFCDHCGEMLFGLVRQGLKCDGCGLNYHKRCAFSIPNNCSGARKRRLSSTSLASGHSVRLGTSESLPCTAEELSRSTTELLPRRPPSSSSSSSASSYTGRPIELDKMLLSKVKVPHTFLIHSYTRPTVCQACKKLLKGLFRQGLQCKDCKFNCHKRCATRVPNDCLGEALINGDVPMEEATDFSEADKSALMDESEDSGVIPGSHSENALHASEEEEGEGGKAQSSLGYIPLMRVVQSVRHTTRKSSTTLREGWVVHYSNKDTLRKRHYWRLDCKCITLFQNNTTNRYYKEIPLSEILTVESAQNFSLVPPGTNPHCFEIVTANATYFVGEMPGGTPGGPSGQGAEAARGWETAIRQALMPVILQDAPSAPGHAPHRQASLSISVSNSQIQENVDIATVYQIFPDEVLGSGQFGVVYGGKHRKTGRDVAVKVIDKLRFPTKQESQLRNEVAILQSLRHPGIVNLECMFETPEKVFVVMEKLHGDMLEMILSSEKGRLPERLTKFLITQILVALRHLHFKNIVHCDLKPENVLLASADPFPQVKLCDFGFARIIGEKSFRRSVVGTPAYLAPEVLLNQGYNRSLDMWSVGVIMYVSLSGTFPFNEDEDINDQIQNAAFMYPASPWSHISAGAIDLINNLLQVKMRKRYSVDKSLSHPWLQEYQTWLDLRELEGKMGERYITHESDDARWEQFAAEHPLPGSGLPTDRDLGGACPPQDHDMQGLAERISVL
UniProt P23458, sequence (whole entry, looked up): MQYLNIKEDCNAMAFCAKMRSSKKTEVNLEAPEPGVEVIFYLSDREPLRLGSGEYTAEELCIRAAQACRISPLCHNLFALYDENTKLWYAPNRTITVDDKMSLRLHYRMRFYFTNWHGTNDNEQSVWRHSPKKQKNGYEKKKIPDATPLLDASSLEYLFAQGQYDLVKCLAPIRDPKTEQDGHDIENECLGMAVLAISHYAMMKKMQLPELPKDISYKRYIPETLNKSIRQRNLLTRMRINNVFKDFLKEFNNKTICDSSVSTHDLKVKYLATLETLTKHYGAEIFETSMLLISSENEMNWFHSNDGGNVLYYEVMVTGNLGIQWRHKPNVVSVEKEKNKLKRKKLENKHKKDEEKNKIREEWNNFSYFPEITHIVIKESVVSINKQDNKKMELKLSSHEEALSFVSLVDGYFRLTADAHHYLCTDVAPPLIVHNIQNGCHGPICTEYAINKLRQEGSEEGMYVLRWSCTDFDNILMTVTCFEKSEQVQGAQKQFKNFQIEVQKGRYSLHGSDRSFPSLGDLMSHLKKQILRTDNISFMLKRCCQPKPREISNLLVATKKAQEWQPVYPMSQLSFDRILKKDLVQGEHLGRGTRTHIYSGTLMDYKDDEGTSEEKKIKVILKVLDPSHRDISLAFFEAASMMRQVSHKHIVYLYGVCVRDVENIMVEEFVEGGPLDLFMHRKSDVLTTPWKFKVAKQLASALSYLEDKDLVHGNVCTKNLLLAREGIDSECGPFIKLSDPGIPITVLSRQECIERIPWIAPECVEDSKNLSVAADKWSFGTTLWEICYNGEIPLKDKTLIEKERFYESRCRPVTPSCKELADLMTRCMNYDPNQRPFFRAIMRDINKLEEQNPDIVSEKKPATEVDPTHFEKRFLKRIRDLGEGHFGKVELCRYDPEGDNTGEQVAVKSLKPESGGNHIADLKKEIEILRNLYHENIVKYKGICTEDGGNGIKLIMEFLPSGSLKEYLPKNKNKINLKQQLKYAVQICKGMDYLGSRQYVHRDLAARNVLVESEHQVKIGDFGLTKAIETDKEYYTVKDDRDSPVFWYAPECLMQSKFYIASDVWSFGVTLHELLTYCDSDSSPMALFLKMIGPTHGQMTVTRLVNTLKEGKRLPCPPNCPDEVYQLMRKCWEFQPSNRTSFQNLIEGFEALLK

Compound | tested on | test | system | conditions | scale | quantity | result
CC(C)[C@H](NC(=O)[C@@H]1CSSC(C)(C)[C@H](NC(=O)[C@@H](N)CC(=O)O)C(=O)N[C@@H](Cc2ccccc2)C(=O)N[C@H](Cc2c[nH]c3ccccc23)C(=O)N[C@@H](CCCN)C(=O)N[C@@H](Cc2ccc(O)cc2)C(=O)N1)C(=O)O | Urotensin-2 receptor (UTS2R, Homo sapiens, UniProt Q9UKP6) | agonist, BRET2 biosensor | HEK293 | – | – | EC50 | 40.7 nM
C=CC(=O)Nc1cccc(Cn2ncc3cnc(Nc4cnn(CCOC)c4)nc32)c1 | MEK5 human | binding, KINOMEscan | – | 100 nM | lower = stronger binding | percent of control | 80%
Cc1ncsc1-c1ccc(C(C)NC(=O)C2CC(O)CN2C(=O)C(NC(=O)CCCCCCCCCCN2CCCC(Nc3ncc(Cl)c(Nc4ccccc4S(=O)(=O)C(C)C)n3)C2)C(C)(C)C)cc1 (stereo not drawn) | 22Rv1 | RNA-seq, measured: ZNF30 mRNA | – | concentration not given | baseline: DMSO | log2 fold change | -1.42
Nc1ncc(-c2cc(-c3cnn(CC(F)(F)F)c3)ncc2F)nc1C(=O)NC1CNCC(F)C1 (stereo not drawn) | QSK | KINOMEscan competition binding | – | 1 µM | baseline: DMSO control | remaining binding | 85%
CNc1cc(F)c(C(N)=O)cn1 | NNMT SAM-bound | substrate, SPR | – | 20 °C, added: SAM | – | Kd | 7940 nM
NCCCC[C@H](NC(=O)[C@H](C/C=C/C[C@H](NC(=O)[C@@H]1CCCN1)C(=O)N[C@@H](CCCCN)C(=O)NCCCN)NC(=O)[C@@H]1CCCN1)C(=O)NCCCN | HIV-1 frameshift site RNA | SPR | – | – | – | Kd | 303 nM
CCC1C=CC2CCN(C(=O)C3CCC4C=CC5(CCCN5C(=O)C(Cc5ccccc5Cl)NC(C)=O)C(=O)N43)C2C(=O)N1CC(=O)OC (stereo not drawn) | Transcriptional coactivator YAP1 (YAP1, Homo sapiens, UniProt P46937) | binding, NMR | – | – | – | Kd | 460000 nM
COC(=O)CCCNC(=O)c1cc(S(N)(=O)=O)c(Cl)cc1NC1CCCCC1 | Carbonic anhydrase 6 (CA6, Homo sapiens, UniProt P23280) | – | – | pH 7 | – | Kd | 33000 nM
CC(=O)N1c2ccc(-c3ccc(CNC(=O)c4cn5cc(-c6cnc(N)nc6)nc(N6CCOCC6)c5n4)cc3)cc2CC[C@@H]1C | Bromodomain-containing protein 1, bromodomain (BRD1, Homo sapiens, UniProt O95696) | binding, competition with immobilised ligand | – | – | – | Kd | > 100000 nM
CCc1nc2cc3ccccc3cc2cc1C(=O)N1CCC[C@H]1C(=O)N[C@@H](C/C=C/C[C@H](NC(=O)[C@@H]1CCCN1C(=O)c1cc2cc3ccccc3cc2nc1CC)C(=O)N[C@@H](CCCCN)C(=O)NCCCN)C(=O)N[C@@H](CCCCN)C(=O)NCCCN | HIV-1 frameshift site RNA | SPR | – | – | – | Kd | 723 nM
CC(C)C[C@@H]1NC(=O)[C@H](Cc2ccc(O)cc2)NC(=O)[C@H](CCCNC(=N)N)NC(=O)[C@H](C)NC(=O)[C@H]([C@@H](C)O)NC(=O)[C@H](Cc2ccc(O)cc2)NC(=O)CSC[C@@H](C(N)=O)NC(=O)[C@H](CCCCN)NC(=O)[C@H](Cc2ccc(O)cc2)NC(=O)[C@H](Cc2c[nH]cn2)NC(=O)[C@H](CC(C)C)NC(=O)[C@H]([C@@H](C)O)NC(=O)CNC(=O)[C@H](CC(C)C)NC(=O)[C@H]([C@@H](C)O)NC1=O | Huntingtin, residues 97-2069 (HTT, Homo sapiens, UniProt P42858) | binding, fluorescence polarization | – | N-terminal domain | – | Kd | 8.5 nM
Cc1nn(-c2cccc(N)c2)c(=O)c2cnc(Nc3ccc(N4CCNCC4)cc3)nc12 | Serine/threonine-protein kinase D2 (PRKD2, Homo sapiens, UniProt Q9BZL6) | enzyme activity, inhibitor | – | – | – | IC50 | 1750 nM
CC(C)[C@H]1NC(=O)[C@@H](CCCCN)NC(=O)[C@@H](C)NC(=O)[C@@H](CCCCN)NC(=O)c2cc3cc(c2)C(=O)NC[C@@H](C(=O)N[C@@H](CCCCN)C(N)=O)NC(=O)[C@H](Cc2ccc(O)cc2)NC(=O)[C@@H]([C@H](C)O)NC(=O)[C@H](C)NC(=O)[C@H](Cc2ccc(F)cc2)NC(=O)[C@H](CCCCNC3=O)NC1=O | Guanine nucleotide-binding protein G(i) subunit alpha-1 (GNAI1, Homo sapiens, UniProt P63096) | binding, SPR | – | pH 7.4 | – | Kd | 9080 nM
COC1CN([C@H]2CC[C@H]([C@@]3(C)Oc4c(Cl)cc(C(=O)NCc5c(SC)cc(C)[nH]c5=O)c(C)c4O3)CC2)C1 | – | RNA-seq, measured: TMEM86B mouse homolog | mouse, HT-1376 xenograft, whole blood | dose not given | baseline: vehicle | log2 fold change | 1.61
CCCCCCCO[C@H]1O[C@H](CO)[C@@H](O)[C@H](O)[C@@H]1O | Type 1 fimbrin D-mannose specific adhesin, lectin domain (fimH, Escherichia coli K-12, UniProt P08191) | binding, isothermal titration calorimetry | – | 15 °C, individual titrations | – | Kd | 21.6 nM
Cc1c[nH]c2nccc(-c3ccc(C(=O)N[C@@H]4c5c(F)cc(C(F)F)cc5C[C@@H]4O)cn3)c12 | Tyrosine-protein kinase JAK1, JH1 (JAK1, Homo sapiens, UniProt P23458) | binding, competition with immobilised ligand | – | – | – | Kd | 675 nM
COc1cc(CF)c(C(N)=O)cn1 | NNMT SAM-bound | substrate, SPR | – | 20 °C, added: SAM | – | Kd | 794 nM
CC(=O)N[C@H]1[C@@H](OC(=O)NCCCOCCCCOCCCNC(=O)O[C@H]2O[C@H](CO)[C@@H](O)[C@H](O)[C@H]2NC(C)=O)O[C@H](CO)[C@@H](O)[C@@H]1O | wheat germ agglutinin | ITC | – | pH 7.0, 298 K | – | Kd | 128 ± 6 nM

Some of these lines once more:
Compound | tested on | test | system | conditions | scale | quantity | result
COc1cc(CF)c(C(N)=O)cn1 | NNMT SAM-bound | substrate, SPR | – | 20 °C, added: SAM | – | Kd | 794 nM
